# Assay results from different studies.
# Protocols differ between the studies behind these lines. Numbers after ± are the reported error.
Substance,test,test system,setting,scale,endpoint,value
CC(=O)N[C@H](C(=O)N[C@@H](CCCNC(=N)N)C(=O)N[C@H](C(=O)N[C@@H](CC(=O)O)C(=O)N[C@H](C(=O)N[C@@H](CCCNC(=N)N)C(=O)N[C@H](C(=O)N[C@@H](CC(=O)O)C(=O)N[C@H](C(N)=O)C(C)C)C(C)C)C(C)C)C(C)C)C(C)C,rotational rheometry,2% w/v aqueous solution,shear rate range 1-1000 s^-1,,viscosity,2050 ± 204 Pa·s
CCCCCCCCCCCCCCCCCCOP(=O)([O-])OC1CC[N+](C)(C)CC1,,"rhesus monkey, male, cerebrospinal fluid","oral, 7 mg/kg, single dose, mean of 3",,Tmax,~178 h
O=C1N=C(N2CCOCC2)CN1c1ccc(Cl)cc1,,"beagle dog, female","oral, 30 mg/kg, tablets",,terminal half-life,1.72 h
colistin methanesulfonate,,0.9% NaCl,"48 h, below CMC",,conversion to colistin,60%
Cc1ccc(NC(=O)c2ccc(CN3CCN(C)CC3)cc2)cc1Nc1nccc(-c2cncc(-c3oncc3C)c2)n1,,"Parkinson's disease patients, plasma","oral, 100 mg once daily, day 7, 7-day dosing, mean",,AUC(0-t),76600 ng·h/mL
CCc1cn([C@@H]2O[C@H](CO)[C@@H](O)[C@H]2O)c2ncnc(C)c12,,mouse liver microsomes,"30 min, with: NADPH",,remaining compound,95%
Cc1cc(Nc2ncc(Cl)c(Nc3ccccc3S(=O)(=O)C(C)C)n2)c(OC(C)C)cc1C1CCNCC1,refers to: unbound drug,"human, enhancing tumour over plasma","oral, 450 mg/day, 23 to 25 h after dose 10",,"Kp,uu",3.54
CC(C)=CCC[C@](C)(O[C@@H]1O[C@H](CO)[C@@H](O)[C@H](O)[C@H]1O)[C@H]1CC[C@]2(C)[C@@H]1[C@H](O)C[C@@H]1[C@@]3(C)CC[C@H](O[C@@H]4O[C@H](CO)[C@@H](O)[C@H](O)[C@H]4O[C@@H]4O[C@H](CO)[C@@H](O)[C@H](O)[C@H]4O)C(C)(C)[C@@H]3CC[C@]12C,,"Sprague Dawley rat, male, plasma","oral, 42 mg/kg, in red ginseng extract",,CL/F,20 ± 3.33 mL/min/kg
CC(C)C[C@H](N)C(=O)N1CCC[C@H](NCC(=O)N2CCC[C@H]2C(N)=O)C1,capillary electrophoresis-MS,water,,,pKa1,5.21
[2H]C([2H])([2H])Oc1cc2c(cc1OC([2H])([2H])[2H])C1CC(=O)C(CC(C)C)CN1CC2 (centres unmarked),refers to: deuterated total (α+β)-HTBZ,"healthy human volunteers, plasma","oral, 18 mg single dose, standard meal",,dose-normalized AUC(0-inf),21.9 ng·h/mL
Cn1ncc(Cl)c1-c1cc(C(=O)N[C@H](CN)Cc2ccc(F)c(F)c2)oc1Cl,,human patients,"oral, continuous once-daily dosing",,effective half-life,~67.2 h
CS(=O)(=O)n1cc2c(n1)CN([C@H]1CO[C@H](c3cc(F)ccc3F)[C@@H](N)C1)C2,,"healthy male human, plasma","oral, 200 mg single, fasted, geometric mean",,concentration at 168 h,79.5 nM
acyl ghrelin (human),,"mouse, wild type, striatum","intravenous, 10 min",,brain/serum ratio,6.52 µL/g
CC[C@H](C)[C@H](NC(=O)[C@H](CC(C)C)NC(=O)[C@H](Cc1c[nH]c2ccccc12)NC(=O)[C@H](C)NC(=O)[C@@H](NC(=O)[C@H](Cc1ccccc1)NC(=O)[C@H](CC(=O)O)NC(=O)[C@H](CCCNC(=N)N)NC(=O)[C@H](C)NC(=O)[C@H](C)NC(=O)[C@H](CC(C)C)NC(=O)[C@H](C)NC(=O)[C@H](CC(=O)O)NC(=O)[C@H](CC(C)C)NC(=O)[C@@H](NC(=O)[C@@H](NC(=O)[C@H](C)NC(=O)[C@H](CC(C)C)NC(=O)[C@H](CCC(=O)O)NC(=O)[C@H](CO)NC(=O)[C@H](CO)NC(=O)[C@H](Cc1ccccc1)NC(=O)[C@@H](NC(=O)CNC(=O)[C@H](CCC(=O)O)NC(=O)CNC(=O)[C@@H](N)Cc1cnc[nH]1)[C@@H](C)O)[C@@H](C)O)[C@@H](C)CC)[C@@H](C)CC)C(=O)N[C@@H](C)C(=O)N[C@H](C(=O)N[C@@H](CCCCN)C(=O)N[C@H](C(=O)N[C@H](C(=O)N[C@@H](CC(=O)O)C(=O)N[C@@H](CCCCN)C(=O)N[C@@H](CCCCN)C(=O)N[C@@H](CCCCN)C(=O)N[C@@H](CCCCN)C(=O)N[C@@H](CCCCN)C(=O)N[C@@H](CCCCN)C(N)=O)[C@@H](C)O)[C@@H](C)CC)[C@@H](C)O,,"healthy human subjects, plasma","subcutaneous, 5 mg once weekly, day 36 after 6 doses, steady state, median",,tmax,0.52 h
CC[C@@]1(O)C(=O)OCc2c1cc1n(c2=O)Cc2cc3c(CN(C)C)c(O)ccc3nc2-1,,liposome suspension 50 mg/mL,"pH 6.33 and 7.67, 37 °C",baseline: aqueous solution,lactone-carboxylate interconversion kinetics,no effect
CC(C)NC[C@@H](C(=O)N1CCN(c2ncnc3c2[C@H](C)C[C@H]3O)CC1)c1ccc(Cl)cc1,,"human, Healthy hepatic function (Child-Pugh), plasma","oral, 100 mg single dose, arithmetic mean",,t1/2,49.8 h
CC(=O)Nc1noc(C)n1,,"mouse C57BL/6, male, brain","oral, 60 mg/kg, 2 h",,brain concentration,883 to 1590 ng/g
O=C(Nc1nc2cccc(-c3ccc(CN4CCS(=O)(=O)CC4)cc3)n2n1)C1CC1,,human male,"oral, 300 mg once daily, steady state, mean",,terminal half-life,10.9 h
C=C(C)[C@@H]1CC[C@]2(NCCN3CCS(=O)(=O)CC3)CC[C@]3(C)[C@H](CC[C@@H]4[C@@]5(C)CC=C(C6=CC[C@@](CF)(C(=O)O)CC6)C(C)(C)[C@@H]5CC[C@]43C)[C@@H]12,,healthy human,"oral, 10 mg, single ascending dose, geometric mean",,t1/2,25.3 h
C[C@]12CC[C@@H]3c4ccc(O)cc4CC[C@H]3[C@@H]1C[C@@H](O)[C@@H]2O,GC-MS,"breast cancer women on NSAI, serum","vaginal, 0.03 mg, 3 h, day 0",,minimum serum concentration,0 ng/mL
O=C(CCCN1CCCN(c2ccc(Cl)cc2)CC1)c1ccc(F)cc1,,"male Sprague-Dawley rats, plasma","intravenous, 1.7 mg/kg, with: HAL 0.7 mg/kg plus BCT 0.1 mg/kg",,Vss,2 ± 0.03 L/kg
Cn1c(-c2ccc(C(N)=O)cc2F)nnc1C(C)(C)Oc1c(F)cc(Cl)cc1F,,"young Japanese adults, plasma","oral, 20 mg single dose, day 1, high-dose multiple-dose study",,half-life mean,18.1 h
CC(C)(O/N=C(\C(=O)N[C@H]1CN2CC(C(=O)NCCN3C(=O)c4cc(O)c(O)cc4C3=O)=C(C(=O)O)N2C1=O)c1nc(N)sc1Cl)C(=O)O,,"CD-1 mouse, plasma","subcutaneous, 50 mg/kg, 0.5 h",,plasma concentration,20200 ng/mL
O=C(O)COC[C@H]1CC[C@H](COC(=O)N(c2ccccc2)c2ccc(Cl)cc2)CC1,,"human, plasma","oral, 10 µg, 12 h, multiple doses, twice daily, steady state",,concentration,0.436 ng/mL
CCOc1ccc(Cc2cc([C@]34OC[C@](CO)(O3)[C@@H](O)[C@H](O)[C@H]4O)ccc2Cl)cc1,,"human, type 2 diabetes, normal renal function, urine and plasma","oral, 15 mg single, 0 to 96 h, geometric mean",,renal clearance,2.09 mL/min
CCN(CC)Cc1cc(Nc2ccnc3cc(Cl)ccc23)ccc1O,,"rat, Wistar, male, plasma","oral, 60 mg/kg",,CL/F,261 ± 27.5 mL/min/kg
des-acyl ghrelin (human),,"mouse, wild type, cerebellum","intravenous, 10 min",,brain/serum ratio,10 µL/g
CON,,"human, whole blood on ice",0 min before centrifugation,,blood concentration,10.5 ng/mL
CC(C)(C)c1ccc(-c2nc3n(c(=O)c2C#N)CCCS3)cn1,,oocyte extracellular recording solution,"pH 7.4, 22 °C, DMSO below 0.1%",higher not tested,highest soluble concentration,≥ 100 µM
CCN1CC(=O)N[C@@H](CC(C)C)C(=O)N2CCC[C@@H]2C(=O)N(C)[C@@H](CC(C)C)C(=O)N[C@@H](C)C(=O)N(CC2CCOCC2)CC(=O)N[C@@H](Cc2ccccc2)C(=O)N2CCC[C@@H]2C(=O)N(C)[C@@H](CC(C)C)C(=O)N[C@@H](C)C1=O,,mouse,with: 1-aminobenzotriazole pretreatment,,oral bioavailability,2%
O=C(Nc1ccc(OC(F)(F)F)cc1)N[C@H]1CC[C@H](Oc2ccc(C(=O)O)cc2)CC1,,"mares, plasma","intravenous, 0.1 mg/kg",,Vss,1.25 ± 0.34 L/kg
Cc1cc(-c2ncc(CC(=O)Nc3ccc(-c4cnccn4)cn3)cc2C)ccn1,,"patients, plasma","oral, dose not given, threshold for dysgeusia grade ≥2",,steady-state Cmax,< 118 ng/mL
CCCC[C@@H]1NC(=O)[C@@H](NC(=O)[C@H](CCC(=O)O)NC(=O)CNC(=O)CN2CCN(CC(=O)O)CCN(CC(=O)O)CCN(CC(=O)O)CC2)CCCCNC(=O)C[C@@H](C(N)=O)NC(=O)[C@H](C(C)C)NC(=O)[C@@H]2CCCN2C(=O)[C@H](CCCNC(=N)N)NC(=O)CNC(=O)[C@H](Cc2c[nH]c3ccccc23)NC(=O)[C@H](CCCNC(=N)N)NC(=O)[C@@H](Cc2ccccc2)NC(=O)[C@H](Cc2c[nH]cn2)NC(=O)[C@H](CCC(=O)O)NC1=O [indium-111 labelled],,"normal C57 mice, heart","intravenous, 0.037 MBq, 24 h",,tissue uptake,0.05 ± 0.04 %ID/g
CS/C(S)=N/CCCC[S+](C)[O-] (racemic),"RT-PCR, refers to: Cyp19a1","rat, liver","oral gavage, 200 mg/kg, dosed for four days",baseline: vehicle,mRNA fold change,0.413
Cc1ccnc2c1NC(=O)c1cccnc1N2C1CC1,,"olive baboon (Papio anubis), non-pregnant, serum","oral, 400 mg, tablet, single dose",,AUC(0-8 h),1940 ± 57.2 ng·h/mL
CC(C)Cc1nn(C)c(=O)c2c(SCCCO)n(Cc3ccc(C#CCCCOc4ccc(C[C@H](N)C(=O)O)cc4)c4ccccc34)cc12,,"NOD/SCID mouse, tumour-bearing, tumour","concentration not given, 24 h, range",,tumour concentration,210 to 460 nM
CCCCOCCOc1ccc(-c2ccc3c(c2)/C=C(/C(=O)Nc2ccc([S@@+]([O-])Cc4cncn4CCC)cc2)CCCN3CC(C)C)cc1,,"human, controls matched to mild impairment","oral, 150 mg",,effective half-life,21.2 h
C[C@](N)(Cc1ccc(O)c(O)c1)C(=O)O,static gravimetric method,"supercritical CO2, 435.3 kg/m3","5 h, 333 K, pressure 12 MPa",,solubility,31.7 µg/mL
CCCOc1ccc([C@H]2CNC(=O)N2c2ccc3[nH]cnc3c2)cc1,,"human volunteers fasted, plasma","oral solution, 400 mg single dose, day 1, geometric mean",,apparent terminal half-life,3.98 h
Fc1cc(Cl)c(Nc2ccc(F)cc2Cc2nnn[nH]2)c(Cl)c1,,human liver microsomes,"30 min, with: NADPH",,remaining compound,103 ± 1.3%
CNCc1ccc(-c2[nH]c3cc(F)cc4c3c2CCNC4=O)cc1,,"human patients, plasma","oral, 480 mg twice daily, day 15, steady state, median",,Tmax,1.51 h
liraglutide,equilibrium dialysis,human plasma 5% diluted,"10 nM, 4 to 5 h, pH 7.4, 37 °C, inner-outer ratio 50:1",,plasma protein binding,99.3%
Cc1cc(C)c(C#N)c(SCC(=O)c2cccs2)n1,metabolic stability,"human, liver microsomes","0.5 µM, pH 7.4",,microsomal CLint,758 µL/min/mg
CC(C)(CC(=O)N1CCCC1)NCC(=O)N1C[C@@H](F)C[C@H]1C#N,,"Chinese type 2 diabetes patients, plasma","oral, 100 mg once daily, multiple doses",,AUC(0-t) at steady state,1480 ng·h/mL
CCCCC1(CCCC)CN(c2ccccc2)c2cc(SC)c(OCC(=O)N[C@@H](C(=O)NCC(=O)O)c3ccccc3)cc2S(=O)(=O)C1,LC-MS/MS,"human, plasma","oral, 20 mg, single dose, before breakfast",,half-life,4.18 h
CC[C@@H](C)[C@@H]1NC(=O)[C@H]([C@@H](C)CC)NC(=O)[C@@H](Cc2c[nH]c3ccccc23)NC(=O)CCSCC[C@@H](C(=O)N(C)[C@H](CO)CCCN)NC(=O)[C@H](CC(N)=O)NC1=O,,perfused human term placental cotyledon,"1.2 µM, 1 to 120 min, 36.5 °C, maternal to fetal, with: antipyrine 531 µM",,steady-state placental transfer,~11%
CNCc1ccc(-c2cc(-c3nc(-c4ccc(S(=O)(=O)C(C)C)cc4)cnc3N)on2)cc1,,"mouse BALB/c female, plasma","intravenous, 2.0 mg/kg, from AUC(0-360)",,CL,43.6 mL/min/kg

# For quick reference, copied from above:
Substance,test,test system,setting,scale,endpoint,value
CC(=O)N[C@H](C(=O)N[C@@H](CCCNC(=N)N)C(=O)N[C@H](C(=O)N[C@@H](CC(=O)O)C(=O)N[C@H](C(=O)N[C@@H](CCCNC(=N)N)C(=O)N[C@H](C(=O)N[C@@H](CC(=O)O)C(=O)N[C@H](C(N)=O)C(C)C)C(C)C)C(C)C)C(C)C)C(C)C,rotational rheometry,2% w/v aqueous solution,shear rate range 1-1000 s^-1,,viscosity,2050 ± 204 Pa·s
CCCCCCCCCCCCCCCCCCOP(=O)([O-])OC1CC[N+](C)(C)CC1,,"rhesus monkey, male, cerebrospinal fluid","oral, 7 mg/kg, single dose, mean of 3",,Tmax,~178 h
O=C1N=C(N2CCOCC2)CN1c1ccc(Cl)cc1,,"beagle dog, female","oral, 30 mg/kg, tablets",,terminal half-life,1.72 h
colistin methanesulfonate,,0.9% NaCl,"48 h, below CMC",,conversion to colistin,60%
